Results from different studies.
Protocols differ between the studies behind these lines.
Organism: Mycobacterium tuberculosis

Compound	test	test system	conditions	MIC
CCN(CC)CCCNc1ccc2ncn3c4ccc(O)cc4c(=O)c1c23	microbial growth	H37RV	7 days	4 to 8 µg/mL
O=c1c(Cl)c(Cl)cnn1Cc1ccccc1	bacterial growth	H37Rv, Sauton's medium	–	490 µM
Cc1ccc2nc(C)c(CC(=O)NCc3ccccc3)n2c1	microbial growth, resazurin	H37RV	–	19 µM
CCC(CO)NCCNC(CC)CO.O=C(CN1C(=O)CSC1=O)Oc1ccc(C=NNC(=O)c2ccncc2)cc1Cl	growth in combination	H37Rv	together with: reference drug at 1/2 MIC	0.5 µg/mL
COc1ccc2nccc(CC[C@H]3OC[C@H](NC(=O)c4ccc5c(c4)OCCO5)CO3)c2c1	microbial growth	H37RV	–	> 32 µg/mL
Cc1nc2cc(Br)ccn2c1C(=O)NCc1ccc2oc(-c3ccc(Cl)cc3)nc2c1	optical density	H37Rv	144 h	10 µM
O=C1NNC(=O)C1/N=N/c1nnc(S)s1	microbial growth, resazurin	H37RV	5 days	> 64 µg/mL
CCC(CO)NCCNC(CC)CO.CCOc1cc(C=NNC(=O)c2ccncc2)ccc1OC(=O)CN1C(=O)CSC1=O	growth in combination	H37Rv	together with: reference drug at 1/2 MIC	0.5 µg/mL
COc1c(Cl)cnn(-c2cccc(C)c2)c1=O	bacterial growth	H37Rv, 7H9 medium with OADC	–	> 1000 µM
Nc1ccc(S(=O)(=O)c2ccc(NCCS(=O)(=O)Oc3ccc(S(N)(=O)=O)cc3N)cc2)cc1	–	pabC deletion mutant	concentration not given, 12 days	6.25 µM
CCc1nc2ccc(C(F)(F)F)cn2c1C(=O)NCc1ccc2oc(-c3ccc(OC(F)(F)F)cc3)nc2c1	optical density	H37Rv	144 h	> 25 µM
COc1cc(/C=N/NC(=O)c2ccncc2)ccc1OC(=O)CN1C(=O)CSC1=O	Alamar blue	192	–	149 µM
CCSc1cnn(-c2ccccc2)c(=O)c1Cl	bacterial growth	H37Rv, Sauton's medium	–	940 µM
Cc1nc(=O)[nH]c(C)c1/N=N/c1nnc(S)s1	microbial growth, resazurin	H37RV	5 days	> 64 µg/mL
CCc1ccn2c(C(=O)N(C)Cc3ccccc3)c(C)nc2c1	microbial growth	H37RV	5 days	> 20 µM
CCOc1c(Cl)cnn(-c2ccccc2)c1=O	bacterial growth	H37Rv, 7H9 medium with OADC	–	1000 µM
O=C(CN1C(=O)CSC1=O)Oc1ccc(/C=N/NC(=O)c2cccnc2)cc1Br	Alamar blue	192	–	268 µM
Cc1nc2cc(Br)ccn2c1C(=O)NCc1ccc2oc(-c3ccc(OC(F)(F)F)cc3)nc2c1	optical density	H37Rv	144 h	> 10 µM
FC(F)(F)Oc1ccc(CCNc2cc(-c3ccc(Cl)s3)nc3nncn23)cc1	microbial growth	H37RV	5 days	20 µM
Cc1nc2ccc(Br)cn2c1C(=O)NCc1ccc2oc(-c3ccc(OC(F)(F)F)cc3)nc2c1	optical density	H37Rv	144 h	0.2 µM
NC(=S)N/N=C/c1ccc(OC(=O)CC2SC(=O)NC2=O)cc1 (centres unmarked)	Alamar blue	192	–	2.84 µM
COc1ccc2ncc(F)c(C[C@H](O)[C@H]3OC[C@H](NCc4ccc5c(c4)OCCO5)CO3)c2c1	microbial growth	H37RV	–	2 µg/mL
CCOc1cc(/C=N/NC(=O)c2cccnc2)ccc1OC(=O)CN1C(=O)CSC1=O	Alamar blue	192	–	1160 µM
CC(C)C[C@H](NC(=O)[C@@H](N)CO)C(=O)N[C@@H](CCC(=O)O)C(=O)N[C@H](C(=O)N[C@H](C(=O)N[C@@H](CCC(=O)O)C(=O)N[C@@H](C)C(=O)N[C@@H](CC(=O)O)C(=O)O)[C@@H](C)OP(=O)(O)O)C(C)C	–	H37Rv	–	> 200 µg/mL

Compound	test	test system	conditions	MIC
CCc1ccn2c(C(=O)NCc3ccc(C)cc3)c(C)nc2c1	microbial growth	H37RV	5 days	0.004 µM
CCCCNc1c(Cl)cnn(-c2ccccc2)c1=O	bacterial growth	H37Rv, 7H9 medium with OADC	–	> 900 µM
CCc1ccn2c(C(=O)NCc3ccccc3)c(C)nc2c1	microbial growth, resazurin	H37RV	–	< 0.195 µM
Cc1nc2cc(OC(F)(F)F)ccn2c1C(=O)NCc1ccc2oc(-c3ccc(Cl)cc3)nc2c1	optical density	H37Rv	144 h	> 10 µM
O=C(CN1C(=O)CSC1=O)Oc1ccc(/C=N/NC(=S)Nc2cccc(Cl)c2)cc1Cl	microbial growth, resazurin	H37RV	–	32.2 µM
CCc1nc2ccc(Cl)cn2c1C(=O)NCc1ccc2oc(-c3ccc(OC(F)(F)F)cc3)nc2c1	optical density	H37Rv	144 h	≤ 0.04 µM
COc1ccc2ncc(F)c(C[C@H](O)[C@H]3OC[C@H](NCc4cc5c(nn4)OCCS5)CO3)c2n1	microbial growth	H37RV	–	4 µg/mL
O=c1c(N2CCCC2)c(Cl)cnn1-c1ccccc1	bacterial growth	H37Rv, 7H9 medium	–	450 µM
Cc1nnc2nc(-c3ccccn3)cc(NCCc3ccc(OC(F)(F)F)cc3)n12	microbial growth	H37RV	5 days	17 to 50 µM
COc1c(N2CC3CCCNC3C2)c(F)cc2c(=O)c(C(=O)OCc3ccc([N+](=O)[O-])o3)cn(C3CC3)c12 (centres unmarked)	microbial growth	H37RV	–	8 µM
COc1ccc2ncc(F)c(CC[C@@]3(O)CO[C@@H]4[C@@H](NCc5ccc(Cl)c(Cl)c5)CO[C@@H]43)c2n1	microbial growth	H37RV	–	2 µg/mL
COc1c(N2CC3CCCNC3C2)c(F)cc2c(=O)c(C(=O)OCc3cnc([N+](=O)[O-])n3C)cn(C3CC3)c12 (centres unmarked)	microbial growth	H37RV	–	1 µM
CCc1nc2cc(OC(F)(F)F)ccn2c1C(=O)NCc1ccc2oc(-c3ccc(OC(F)(F)F)cc3)nc2c1	optical density	H37Rv	144 h	> 25 µM
COc1c(N2CC3CCCNC3C2)c(F)cc2c(=O)c(C(=O)OCc3ccc([N+](=O)[O-])s3)cn(C3CC3)c12 (centres unmarked)	microbial growth	H37RV	–	2 to 8 µM
CCC(CO)NCCNC(CC)CO.CCOc1cc(C=NNC(N)=S)ccc1OC(=O)CN1C(=O)CSC1=O	growth in combination	H37Rv	together with: reference drug at 1/2 MIC	0.5 µg/mL
Cc1nc(=S)[nH]c(C)c1/N=N/c1nnc(S)[nH]1	Microplate Alamar Blue	H37Rv	5 days, 37 °C	4 µg/mL
COc1ccc2ncc(F)c(CC[C@@]3(O)CO[C@@H]4[C@@H](NCc5ccc(C)cc5)CO[C@@H]43)c2n1	microbial growth	H37RV	–	8 µg/mL
Cc1nc(=S)[nH]c(C)c1/N=N/c1nnc(S)s1	Microplate Alamar Blue	H37Rv	5 days, 37 °C	4 µg/mL
Cc1ccc2nc(C)c(CC(=O)NCc3ccc(N(C)C)cc3)n2c1	microbial growth	H37RV	5 days	0.7 µM
Cc1[nH]c(=O)[nH]c(=O)c1/N=N/c1nnc(S)s1	microbial growth, resazurin	H37RV	5 days	> 64 µg/mL
CCc1nc2ccc(OC(F)(F)F)cn2c1C(=O)NCc1ccc2oc(-c3ccc(OC(F)(F)F)cc3)nc2c1	optical density	H37Rv	144 h	> 25 µM
CCc1ccn2c(C(=O)N(C)C)c(C)nc2c1	microbial growth	H37RV	5 days	66 µM
O=C1NNC(=O)C1/N=N/c1nnc(S)[nH]1	microbial growth, resazurin	H37RV	5 days	> 64 µg/mL

Excerpt of the above:
Compound	test	test system	conditions	MIC
CCc1ccn2c(C(=O)N(C)Cc3ccccc3)c(C)nc2c1	microbial growth	H37RV	5 days	> 20 µM
CCOc1c(Cl)cnn(-c2ccccc2)c1=O	bacterial growth	H37Rv, 7H9 medium with OADC	–	1000 µM
O=C(CN1C(=O)CSC1=O)Oc1ccc(/C=N/NC(=O)c2cccnc2)cc1Br	Alamar blue	192	–	268 µM
Cc1nc2cc(Br)ccn2c1C(=O)NCc1ccc2oc(-c3ccc(OC(F)(F)F)cc3)nc2c1	optical density	H37Rv	144 h	> 10 µM
FC(F)(F)Oc1ccc(CCNc2cc(-c3ccc(Cl)s3)nc3nncn23)cc1	microbial growth	H37RV	5 days	20 µM
Cc1nc2ccc(Br)cn2c1C(=O)NCc1ccc2oc(-c3ccc(OC(F)(F)F)cc3)nc2c1	optical density	H37Rv	144 h	0.2 µM
